Assay results collected from several papers.
Protocols differ between the studies behind these lines. Values joined by “and” are separate records of one study, mostly repeats; a detail may differ. Numbers after ± are the reported error.
EGFR T790M: Epidermal growth factor receptor (EGFR, Homo sapiens, UniProt P00533, T790M)
EGFR: Epidermal growth factor receptor (EGFR, Homo sapiens, UniProt P00533)
EGFR L858R/T790M: Epidermal growth factor receptor (EGFR, Homo sapiens, UniProt P00533, L858R/T790M)
EGFR C797S/L858R/T790M: Epidermal growth factor receptor (EGFR, Homo sapiens, UniProt P00533, C797S/L858R/T790M)

SMILES	target	assay	setting	scale	IC50
COCC1CN(C2CCN(c3cc(OC)c(Nc4ncc(Br)c(Nc5ccc6c(c5P(C)(C)=O)OCCO6)n4)cc3C)CC2)C1	EGFR T790M	enzyme activity, inhibitor, TR-FRET			< 1.5 nM
Cc1ccc2oc(-c3c4c(N)n[nH]c(=O)c4nn3-c3ccc(NC(=O)/C=C/CN(C)C)cc3)c(C)c2c1	EGFR	enzyme activity, inhibitor, ELISA			> 1000 nM
CN1CCC2(CC1)C/C(=N\NC(=O)Nc1ccccc1)c1ccccc1O2	EGFR	enzyme activity, inhibitor			116 nM
C=CC(=O)N1CCC[C@@H](n2nc(-c3cccc(C(F)(F)F)c3)c3c(N)ncnc32)C1	EGFR L858R/T790M	cell-free assay			223 nM
CSC(=NN=C(C)c1ccc(S(=O)(=O)N2CCC(C)CC2)cc1)N(C)C	EGFR	enzyme activity, inhibitor			250 nM
CN(C1COC1)C(C)(C)/C=C(\C#N)C(=O)N1CCC[C@H]1Cn1nc(-c2ccc(Oc3ccccc3)cc2F)c2c(N)ncnc21	EGFR	enzyme activity, inhibitor			> 3000 nM
CCCCCCCCCCCCOc1c(O)cc(C(=O)OC2Cc3c(O)cc(O)cc3OC2c2cc(O)c(O)c(O)c2)cc1O (centres unmarked)	EGFR L858R/T790M	kinase activity, inhibitor, Z′-LYTE	together with: 10 µM ATP		18.39 ± 0.09 nM
Cc1nc(-c2ccc(NC(=O)c3cccs3)cc2Cl)no1	EGFR	kinase activity, inhibitor, luminescence		limit value	< 10000 nM
Cc1cc(N2CCN(C(=O)CN3CCN(c4ccccc4)CC3)CC2)n2ncnc2n1	EGFR	enzyme activity, inhibitor			169 nM
CCOC(=O)/C(=N\Nc1ccc(S(=O)(=O)Nc2ncccn2)cc1)C(=O)c1ccccc1	EGFR	enzyme activity, inhibitor, TR-FRET			38.9 nM
COc1cc(N(C)CCN(C)C)c(NC(=O)/C=C/c2ccc3c(c2)OCO3)cc1Nc1nccc(-c2cn(C)c3ccccc23)n1	EGFR L858R/T790M	enzyme activity, inhibitor			1390 nM
O=C(Nc1ccc(-c2noc(C3CC3)n2)c(Cl)c1)c1cccs1	EGFR	enzyme activity, Kinase-Glo luminescence			1980 ± 690 nM
Oc1ncnc2c1sc1sc3c(O)ncnc3c12	EGFR	enzyme activity, inhibitor, TR-FRET			290 nM
NS(=O)(=O)c1ccc(-n2c(SCC(=O)Nc3ccccc3F)nc3cc4ccccc4cc3c2=O)cc1	EGFR	kinase activity, inhibitor			26 ± 4 nM
CCCCCCCCCCOc1c(O)cc(C(=O)OC2Cc3c(O)cc(O)cc3OC2c2cc(O)c(O)c(O)c2)cc1O (centres unmarked)	EGFR	kinase activity, inhibitor, Z′-LYTE	together with: 10 µM ATP		169.1 ± 0.15 nM
C=CC(=O)N1CCC[C@@H](n2nc(-c3ccccc3)c3c(N)ncnc32)C1	EGFR L858R/T790M	cell-free assay			243 nM
Cc1c(C(=O)NNC(=S)Nc2ccc(Cl)cc2)nnn1Cc1nc2ccccc2[nH]1	EGFR	enzyme activity, inhibitor			86 nM
CCCCCCCCCCCCCCOc1c(O)cc(C(=O)O[C@@H]2Cc3c(O)cc(O)cc3O[C@@H]2c2cc(O)c(O)c(O)c2)cc1O	EGFR	kinase activity, inhibitor, Z′-LYTE	together with: 10 µM ATP		49.9 ± 0.05 nM
Cc1ccc(C2=NN(C3=NC(=O)C(=Cc4ccc(O)cc4)S3)C(c3ccc(F)cc3)C2)cc1 (centres unmarked)	EGFR	enzyme activity, inhibitor			83 nM
CN1CCN(c2ccc(Nc3ncc(Cl)c(Nc4ccccc4NS(=O)(=O)C4CC4)n3)cc2)CC1	EGFR C797S/L858R/T790M	enzyme activity, inhibitor, ELISA			1.37 nM
Cc1ccc(S(=O)(=O)c2c(-c3ccccc3)c3c(C)c4ccccc4n3c3ccccc23)cc1	EGFR	enzyme activity, inhibitor, ADP detection			280 nM
Oc1ccc(Cl)cc1-c1nc(NCCN2CCNCC2)c2ccccc2n1	EGFR C797S/L858R/T790M	enzyme activity, inhibitor, ATP luminescence			277 nM
C#Cc1cccc(Nc2ncnc3cc(OC)c(OCCCN4CCOCC4)cc23)c1	EGFR T790M	inhibitor	30 min, room temperature, together with: 80.8 µM ATP		348 nM and 344 nM
C/C(=N\NC(N)=S)c1c(O)c2ccccc2oc1=O	EGFR	enzyme activity, inhibitor, ATP luminescence			311 nM
CC(C)c1ccc(-c2cc(C(=O)N3CCN(C(=O)c4cc(-c5ccc(C(C)C)cc5)nc5ccccc45)CC3)c3ccccc3n2)cc1	EGFR C797S/L858R/T790M	enzyme activity, inhibitor			> 10000 nM
Nc1ncnc2c1sc1sc3c(N)ncnc3c12	EGFR T790M	kinase activity, HTRF			5020 ± 190 nM

Repeated from above:
SMILES	target	assay	setting	scale	IC50
C#Cc1cccc(Nc2ncnc3cc(OC)c(OCCCN4CCOCC4)cc23)c1	EGFR T790M	inhibitor	30 min, room temperature, together with: 80.8 µM ATP		348 nM and 344 nM
CCCCCCCCCCCCCCOc1c(O)cc(C(=O)O[C@@H]2Cc3c(O)cc(O)cc3O[C@@H]2c2cc(O)c(O)c(O)c2)cc1O	EGFR	kinase activity, inhibitor, Z′-LYTE	together with: 10 µM ATP		49.9 ± 0.05 nM
CC(C)c1ccc(-c2cc(C(=O)N3CCN(C(=O)c4cc(-c5ccc(C(C)C)cc5)nc5ccccc45)CC3)c3ccccc3n2)cc1	EGFR C797S/L858R/T790M	enzyme activity, inhibitor			> 10000 nM
